Results of several laboratories.
± marks the error that the study gave.
Cell line: MCF-10A

CCN(CC)c1ccc2c(c1)[O][Pd]([CH2]C#N)[N](Cc1ccccc1)c1ncccc1N=C2 — IC50 (cell growth or viability, MTT; 48 h): > 100 µM
O=C(c1ccc2ccccc2c1)c1cn(-c2ccccc2)nc1C1=Nn2c(Cc3nnc4n3N=C(c3nn(-c5ccccc5)cc3C(=O)c3ccc5ccccc5c3)CS4)nnc2SC1 — IC50 (cell growth or viability, MTT; 48 h): ≥ 50 µM
O=[C]=[Re-2]1(=[C]=O)(=[C]=O)([O]C(=O)c2ccccn2)[n+]2ccc(-c3ccccc3)c3ccc4c(-c5ccccc5)cc[n+]1c4c32 — IC50 (cell growth or viability, resazurin; 72 h): 3.02 µM
Cc1ccc(C(C)C)cc1.O=C(N=P(c1ccccc1)(c1ccccc1)c1ccccc1)c1ccccn1.[Cl-].[Cl][Ru+] — IC50 (cell growth or viability, resazurin; 24 h): 2.66 µM
Clc1ccc2ccc3[n+](c2c1)[Ir-3]12([c]4ccccc4-3)([c]3ccccc3-c3ccc4ccc(Cl)cc4[n+]31)[n+]1ccccc1-c1cccc[n+]12.F[P-](F)(F)(F)(F)F — IC50 (cell growth, MTT; 72 h): 0.72 ± 0.02 µM
N#C[CH2][Pd]1[O]c2ccccc2C=Nc2cccnc2[N]1Cc1ccccc1 — IC50 (cell growth or viability, MTT; 48 h): > 100 µM
NS(=O)(=O)c1ccc(/N=N/c2ccc(O)c(C=O)c2)cc1 — IC50 (cell growth or viability, MTT; 72 h): 31.8 µM
C#CCOC(=O)C(CC)C1CCC(C)C(C(C)C(O)C(C)C(=O)C(CC)C2OC3(C=CC(O)C4(CCC(C)(C5CCC(O)(CC)C(C)O5)O4)O3)C(C)CC2C)O1 (centres unmarked) — IC50 (viability, MTT; 96 h): 2 ± 0.4 µM
O=[C]=[Re-2]1(=[C]=O)(=[C]=O)([O]C(=O)c2ccccc2Nc2cccc(C(F)(F)F)c2)[n+]2ccc(-c3ccccc3)c3ccc4c(-c5ccccc5)cc[n+]1c4c32 — IC50 (cell growth or viability, resazurin; 72 h): 3.68 µM
N#C[CH2][Pd]1[O]c2ccc(Br)cc2C=Nc2cccnc2[N]1Cc1ccccc1 — IC50 (cell growth or viability, MTT; 48 h): > 100 µM
CCC(C(=O)O)C1CCC(C)C(C(C)C(O)C(C)C(=O)C(CC)C2OC3(C=CC(NCc4cn(CCCCSC(C)=O)nn4)C4(CCC(C)(C5CCC(O)(CC)C(C)O5)O4)O3)C(C)CC2C)O1 (centres unmarked) — IC50 (cell growth or viability, resazurin; 72 h): 12.1 µM
CCCC/C=N/NC(=O)c1cc2cc(Nc3nccc(-c4cccnc4)n3)ccc2[nH]1 — IC50 (cell growth or viability, MTT; 48 h): > 50 µM
NS(=O)(=O)c1ccc(/N=N/c2ccc(O)c(/C=N/c3cc(Cl)ccc3O)c2)cc1 — IC50 (cell growth or viability, MTT; 72 h): 8.75 µM
O=[C]=[Re-2]1(=[C]=O)(=[C]=O)([O]C(=O)c2cccnc2)[n+]2ccc(-c3ccccc3)c3ccc4c(-c5ccccc5)cc[n+]1c4c32 — IC50 (cell growth or viability, resazurin; 72 h): 7.16 µM
NS(=O)(=O)c1ccc(/N=N/c2ccc(O)c(/C=N/c3ccccn3)c2)cc1 — IC50 (cell growth or viability, MTT; 48 h): 29.2 µM
O=[C]=[Re-2]1(=[C]=O)(=[C]=O)([O]S(=O)(=O)c2ccc3ccccc3c2)[n+]2ccc(-c3ccccc3)c3ccc4c(-c5ccccc5)cc[n+]1c4c32 — IC50 (cell growth or viability, resazurin; 72 h): 2.79 µM
COC(=O)c1ccc(-n2nc(C(F)(F)F)cc2-c2cc(OC)c(OC)c(OC)c2)cc1 — IC50 (cell growth or viability, SRB): 23.2 µM
CCCCCCCCC=CCCCCCCCC(=O)OC(COC(=O)Cc1c(C)n(C(=O)c2ccc(Cl)cc2)c2ccc(OC)cc12)COP(=O)([O-])OCC[N+](C)(C)C (centres unmarked) — IC50 (cell growth or viability, SRB; 72 h): 182 µM
CCC(C(=O)O)C1CCC(C)C(C(C)C(O)C(C)C(=O)C(CC)C2OC3(C=CC(NCc4cn(-c5ccc(C(C)=O)cc5)nn4)C4(CCC(C)(C5CCC(O)(CC)C(C)O5)O4)O3)C(C)CC2C)O1 (centres unmarked) — IC50 (cell growth or viability, resazurin; 72 h): 2.35 µM
CC(=O)[O][Ag]=[c]1n(C)ccn1CC(O)c1ccccc1 (centres unmarked) — IC50 (cell growth or viability, MTT; 72 h): > 200 µM
NS(=O)(=O)c1ccc(/N=N/c2ccc(O)c(/C=N/CCc3c[nH]c4ccccc34)c2)cc1 — IC50 (cell growth or viability, MTT; 72 h): 16.4 µM
C[n+]1ccn(CC(O)c2ccccc2)[c]1[Ag-][I] (centres unmarked) — IC50 (cell growth or viability, MTT; 72 h): 71.7 µM
Cc1ccc(/C=N/NC(=O)c2cc3cc(Nc4nccc(-c5cccnc5)n4)ccc3[nH]2)cc1 — IC50 (cell growth or viability, MTT; 48 h): > 50 µM
CCC(CCC(C)C1CCC2C3CCC4=CC(=O)CCC4(C)C3CCC12C)C(C)C (centres unmarked) — IC50 (cell growth or viability, resazurin; 24 h): 106 µg/mL
NS(=O)(=O)c1ccc(/N=N/c2ccc(O)c(/C=N/c3cc([N+](=O)[O-])ccc3O)c2)cc1 — IC50 (cell growth or viability, MTT; 48 h): 13.9 µM
O=C(c1ccc2ccccc2c1)c1cn(-c2ccccc2)nc1C1=Nn2c(CCCc3nnc4n3N=C(c3nn(-c5ccccc5)cc3C(=O)c3ccc5ccccc5c3)CS4)nnc2SC1 — IC50 (cell growth or viability, MTT; 48 h): 48.4 µM
NS(=O)(=O)c1ccc(/N=N/c2ccc(O)c(/C=N/c3nccs3)c2)cc1 — IC50 (cell growth or viability, MTT; 72 h): 13.1 µM
CCC(C(=O)O)C1CCC(C)C(C(C)C(O)C(C)C(=O)C(CC)C2OC3(C=CC(NCc4cn(C56CC7CC(CC(C7)C5)C6)nn4)C4(CCC(C)(C5CCC(O)(CC)C(C)O5)O4)O3)C(C)CC2C)O1 (centres unmarked) — IC50 (cell growth or viability, resazurin; 72 h): 1.26 µM
O=[C]=[Re-2]1(=[C]=O)(=[C]=O)([O]S(=O)(=O)c2cccc3ccccc23)[n+]2ccc(-c3ccccc3)c3ccc4c(-c5ccccc5)cc[n+]1c4c32 — IC50 (cell growth or viability, resazurin; 72 h): 3.63 µM
NS(=O)(=O)c1ccc(/N=N/c2ccc(O)c(/C=N/c3cccc(O)c3)c2)cc1 — IC50 (cell growth or viability, MTT; 48 h): 20.9 µM
CCC(C(=O)O)C1CCC(C)C(C(C)C(O)C(C)C(=O)C(CC)C2OC3(C=CC(NCc4cn(CCOCCOCCOC)nn4)C4(CCC(C)(C5CCC(O)(CC)C(C)O5)O4)O3)C(C)CC2C)O1 (centres unmarked) — IC50 (cell growth or viability, resazurin; 72 h): > 12.5 µM
CC(=O)N[C@@H](Cc1c[nH]c2ccccc12)C(=O)[O][Re-2]1(=[C]=O)(=[C]=O)(=[C]=O)[n+]2c(C)cc(-c3ccccc3)c3ccc4c(-c5ccccc5)cc(C)[n+]1c4c32 — IC50 (cell growth or viability, resazurin; 72 h): 3.04 µM

Repeated from above:
O=[C]=[Re-2]1(=[C]=O)(=[C]=O)([O]S(=O)(=O)c2ccc3ccccc3c2)[n+]2ccc(-c3ccccc3)c3ccc4c(-c5ccccc5)cc[n+]1c4c32 — IC50 (cell growth or viability, resazurin; 72 h): 2.79 µM
O=[C]=[Re-2]1(=[C]=O)(=[C]=O)([O]C(=O)c2ccccn2)[n+]2ccc(-c3ccccc3)c3ccc4c(-c5ccccc5)cc[n+]1c4c32 — IC50 (cell growth or viability, resazurin; 72 h): 3.02 µM
Cc1ccc(C(C)C)cc1.O=C(N=P(c1ccccc1)(c1ccccc1)c1ccccc1)c1ccccn1.[Cl-].[Cl][Ru+] — IC50 (cell growth or viability, resazurin; 24 h): 2.66 µM
O=[C]=[Re-2]1(=[C]=O)(=[C]=O)([O]C(=O)c2ccccc2Nc2cccc(C(F)(F)F)c2)[n+]2ccc(-c3ccccc3)c3ccc4c(-c5ccccc5)cc[n+]1c4c32 — IC50 (cell growth or viability, resazurin; 72 h): 3.68 µM
